Measurements gathered from unrelated publications.
Compare with care: the assays were run in different laboratories. Numbers after ± are the reported error. ≈ marks a conversion by molar mass, not a printed value.

For `COCOC[C@H]1O[C@H](O[C@H]2[C@H](O[C@@H]3O[C@H](CO)[C@@H](O[C@H]4O[C@@H](CN)[C@@H](O)[C@H](O)[C@H]4N)[C@H]3O)[C@@H](O)[C@H](N)C[C@@H]2N)[C@H](N)[C@@H](O)[C@@H]1O`, the IC50 was 505 ± 107 µg/mL (ribosome with mitochondrial A site; luciferase translation, cell-free translation).
With `Cc1c(-c2cccc(C3=NCCN3)c2)oc(-c2cccc(C3=NCCN3)c2)c1C` the remaining ΔTm was 100% (F21T G-quadruplex DNA; FRET melting competition; 1 µM, with: calf thymus DNA, G4:CT 1:300; baseline: without competitor).
Under “binding concentration, upper limit”, `CC[C@H](C)[C@H](NC(=O)[C@H](Cc1ccccc1)NC(=O)[C@H](CCC(=O)O)NC(=O)[C@H](CCCCNC(=O)COCC(=O)NCCCOCCOCCOCCCNC(=O)CNC(=O)[C@@H]1CCCN1C(=O)CNC(=O)[C@@H]1CCCN1C(=O)CNC(=O)[C@@H]1CCCN1C(=O)[C@H](CCCCNC(=O)CN(CCN(CCN(CC(=O)O)CC(=O)O)CC(=O)O)CC(=O)O)NC(=O)COCC(=O)NCCCOCCOCCOCCCNC(=O)COCC(=O)NCCOc1ccc(Cl)cc1C(=O)NCCc1ccc(S(=O)(=O)NC(=O)NC2CCCCC2)cc1)NC(=O)[C@H](C)NC(=O)[C@H](C)NC(=O)[C@H](CCC(N)=O)NC(=O)CNC(=O)[C@H](CCC(=O)O)NC(=O)[C@H](CC(C)C)NC(=O)[C@H](Cc1ccc(O)cc1)NC(=O)[C@H](CO)NC(=O)[C@H](CO)NC(=O)[C@@H](NC(=O)[C@H](CC(=O)O)NC(=O)[C@H](CO)NC(=O)[C@@H](NC(=O)[C@H](Cc1ccccc1)NC(=O)[C@@H](NC(=O)CNC(=O)[C@H](CCC(=O)O)NC(=O)[C@H](C)NC(=O)[C@@H](N)Cc1c[nH]cn1)[C@@H](C)O)[C@@H](C)O)C(C)C)C(=O)N[C@@H](C)C(=O)N[C@@H](Cc1c[nH]c2ccccc12)C(=O)N[C@@H](CC(C)C)C(=O)N[C@H](C(=O)N[C@@H](CCCNC(=N)N)C(=O)NCC(=O)N[C@@H](CCCNC(=N)N)C(=O)NCC(N)=O)C(C)C` is recorded as over 30 nM (GLP-1R and SUR1; saturation binding, time-resolved fluorescence; βTC3; monovalent mode, GLP-1 domain).
`C=CCCCCCCCCCOCc1cn(CC2=CC[C@@H]3C(C(=O)OC)=CO[C@@H](OC(C)=O)[C@H]23)nn1` has a viability of 75.3 ± 0.5% (SK-N-SH; neuroprotection, MTT; 0.6 µM, 24 h, with: 250 µM H2O2).
`CC(=O)O[C@@H]1C[C@@H](C)O[C@H]2O[C@@H]3C[C@@H]4CC[C@@H]5[C@H](CC[C@]6(C)[C@@H](C7=CC(=O)OC7)CC[C@]56O)[C@@]4(C)C[C@H]3O[C@]21O` has a viability effect of 24.4% (Schistosoma mansoni; microscopic viability score; adult worms; 0.1 µM, 72 h).
`NC[C@@H]1O[C@H](O[C@H]2[C@@H](O)[C@H](O[C@@H]3[C@@H](O)[C@H](N)C[C@H](N)[C@H]3O[C@H]3O[C@H](CO)[C@@H](OCCO)[C@H](O)[C@H]3N)O[C@@H]2CO)[C@H](N)[C@@H](O)[C@@H]1O` has an IC50 of 87.5 ± 31 µg/mL (ribosome with mitochondrial A site; luciferase translation, cell-free translation).
For `CC(C)C[C@@H]1NC(=O)[C@H](CS)NC(=O)[C@H](CCCCN)NC(=O)[C@H](CC(=O)O)N(C(=O)[C@@H](N)Cc2c[nH]c3ccccc23)CCCNC(=O)NCCCCN([C@@H](C)C(N)=O)C1=O`, “arthritis onset day” read “no effect” (DBA/1 mouse collagen-induced arthritis; intraperitoneal, 360 pg/g weekly; baseline: PBS).
For `O=C(Cc1cccs1)N[C@@H]1C(=O)N2C(C(=O)O)=C(CSc3cccc[n+]3[O-])CS[C@H]12`, “time to CFU reduction” read 72 h (Mycobacterium tuberculosis; 2.5 µM, replicating, over 5 log10).
`CSC(=NNC(=O)c1ccc([N+](=O)[O-])cc1)SC` has an MIC of 50 µg/mL (≈ 175 µM) (Mycobacterium; Smegmatis).
With `CCCCCCCCC(=O)NCc1ccc(O)c(OC)c1` the IC50 was over 4 µg/mL (mAb 6-AT6; antibody binding, indirect competitive ELISA; with: coating antigen 2-OVA).
`COC(=O)C1=CO[C@@H](OC(C)=O)[C@@H]2C(Cn3cc(CCCO)nn3)=CC[C@H]12` has a viability of 72.7 ± 0.4% (SK-N-SH; neuroprotection, MTT; 0.15 µM, 24 h, with: 250 µM H2O2).
`COCO[C@H]1[C@H](O)[C@@H](N)[C@@H](O[C@H]2[C@H](O[C@@H]3O[C@H](CO)[C@@H](O[C@H]4O[C@@H](CN)[C@@H](O)[C@H](O)[C@H]4N)[C@H]3O)[C@@H](O)[C@H](N)C[C@@H]2N)O[C@@H]1CO` has an IC50 of 68.2 ± 5.66 µg/mL (ribosome with mitochondrial A site; luciferase translation, cell-free translation).
For `COC(=O)C1=CO[C@@H](O)[C@@H]2C(Cn3cc(CN4C(=O)c5ccccc5C4=O)nn3)=CC[C@H]12`, the viability was 75.5 ± 0.1% (SK-N-SH; neuroprotection, MTT; 0.3 µM, 24 h, with: 250 µM H2O2).
The IC50 of `CN[C@@H]1[C@H](O)[C@H](NC)[C@H]2O[C@]3(O)[C@H](O[C@@H]2[C@H]1O)O[C@H](C)C[C@H]3NC(=O)Cc1ccc(O)cn1` is reported as 1510 ± 440 nM (Mycolicibacterium smegmatis ribosome; cell-free translation).
`CCCCCCCCOCc1cn(CC2=CC[C@@H]3C(C(=O)OC)=CO[C@@H](O)[C@H]23)nn1` has a viability of 53.2 ± 1.7% (SK-N-SH; neuroprotection, MTT; 0.15 µM, 24 h, with: 250 µM H2O2).
Under inhibition, `Nc1ccc(/C=C/C(=O)N2CCc3c(oc4c(-c5ccc(F)cc5)cc(-c5ccc(C(=O)N6CCC(F)(F)CC6)cn5)cc34)C2)cn1` is recorded as “no inhibition” (panel of 97 kinases; enzyme activity; 1 µM).

For quick reference, copied from above:
`CC(=O)O[C@@H]1C[C@@H](C)O[C@H]2O[C@@H]3C[C@@H]4CC[C@@H]5[C@H](CC[C@]6(C)[C@@H](C7=CC(=O)OC7)CC[C@]56O)[C@@]4(C)C[C@H]3O[C@]21O` has a viability effect of 24.4% (Schistosoma mansoni; microscopic viability score; adult worms; 0.1 µM, 72 h).
`COC(=O)C1=CO[C@@H](OC(C)=O)[C@@H]2C(Cn3cc(CCCO)nn3)=CC[C@H]12` has a viability of 72.7 ± 0.4% (SK-N-SH; neuroprotection, MTT; 0.15 µM, 24 h, with: 250 µM H2O2).
The IC50 of `CN[C@@H]1[C@H](O)[C@H](NC)[C@H]2O[C@]3(O)[C@H](O[C@@H]2[C@H]1O)O[C@H](C)C[C@H]3NC(=O)Cc1ccc(O)cn1` is reported as 1510 ± 440 nM (Mycolicibacterium smegmatis ribosome; cell-free translation).
